Experimental data gathered from unrelated publications.
Each line is one published result; not all experiments were run side by side. Converted amounts (≈) assume the structure as drawn.
4'-phosphopantetheinyl transferase PptT: 4'-phosphopantetheinyl transferase PptT (Mycobacterium tuberculosis, UniProt O33336)
Sequence of UniProt O33336 (whole entry, looked up): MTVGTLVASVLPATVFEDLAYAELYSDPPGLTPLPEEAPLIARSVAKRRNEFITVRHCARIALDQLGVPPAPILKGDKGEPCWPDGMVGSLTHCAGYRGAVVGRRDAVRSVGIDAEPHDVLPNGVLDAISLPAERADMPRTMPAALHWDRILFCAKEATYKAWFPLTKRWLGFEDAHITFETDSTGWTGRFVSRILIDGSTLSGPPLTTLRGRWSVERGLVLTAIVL
Sequence of UniProt Q9BQI3 (whole entry, looked up): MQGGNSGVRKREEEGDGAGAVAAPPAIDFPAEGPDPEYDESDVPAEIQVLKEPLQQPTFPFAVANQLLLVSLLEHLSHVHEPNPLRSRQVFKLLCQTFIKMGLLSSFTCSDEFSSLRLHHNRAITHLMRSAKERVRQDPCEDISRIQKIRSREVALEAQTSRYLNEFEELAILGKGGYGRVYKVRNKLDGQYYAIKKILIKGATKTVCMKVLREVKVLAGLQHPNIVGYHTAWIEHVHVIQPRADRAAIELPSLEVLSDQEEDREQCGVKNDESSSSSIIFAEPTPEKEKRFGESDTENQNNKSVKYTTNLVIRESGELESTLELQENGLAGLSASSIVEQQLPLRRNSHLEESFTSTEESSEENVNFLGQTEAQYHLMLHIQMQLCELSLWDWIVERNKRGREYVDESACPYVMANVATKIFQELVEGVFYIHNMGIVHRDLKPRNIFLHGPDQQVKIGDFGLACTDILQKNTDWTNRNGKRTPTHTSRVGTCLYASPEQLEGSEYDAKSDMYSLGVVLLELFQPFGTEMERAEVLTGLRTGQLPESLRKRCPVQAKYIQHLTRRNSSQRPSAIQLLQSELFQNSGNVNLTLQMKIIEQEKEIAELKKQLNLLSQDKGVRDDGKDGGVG
Sequence of UniProt Q13555 (whole entry, looked up): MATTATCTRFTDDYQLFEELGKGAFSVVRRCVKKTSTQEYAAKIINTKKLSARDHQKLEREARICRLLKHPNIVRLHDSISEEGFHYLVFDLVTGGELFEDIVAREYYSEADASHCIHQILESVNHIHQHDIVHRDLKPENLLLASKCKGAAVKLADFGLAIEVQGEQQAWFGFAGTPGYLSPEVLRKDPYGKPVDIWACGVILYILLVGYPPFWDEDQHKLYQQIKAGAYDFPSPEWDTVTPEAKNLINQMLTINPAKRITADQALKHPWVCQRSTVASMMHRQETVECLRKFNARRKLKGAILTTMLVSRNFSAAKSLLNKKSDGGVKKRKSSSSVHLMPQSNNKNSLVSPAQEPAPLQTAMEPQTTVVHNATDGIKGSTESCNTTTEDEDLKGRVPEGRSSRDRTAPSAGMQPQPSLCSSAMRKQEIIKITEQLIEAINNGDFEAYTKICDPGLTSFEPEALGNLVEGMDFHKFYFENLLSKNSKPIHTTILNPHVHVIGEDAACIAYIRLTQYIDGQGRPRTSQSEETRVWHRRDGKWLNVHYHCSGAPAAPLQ
Sequence of UniProt Q6P3R8 (whole entry, looked up): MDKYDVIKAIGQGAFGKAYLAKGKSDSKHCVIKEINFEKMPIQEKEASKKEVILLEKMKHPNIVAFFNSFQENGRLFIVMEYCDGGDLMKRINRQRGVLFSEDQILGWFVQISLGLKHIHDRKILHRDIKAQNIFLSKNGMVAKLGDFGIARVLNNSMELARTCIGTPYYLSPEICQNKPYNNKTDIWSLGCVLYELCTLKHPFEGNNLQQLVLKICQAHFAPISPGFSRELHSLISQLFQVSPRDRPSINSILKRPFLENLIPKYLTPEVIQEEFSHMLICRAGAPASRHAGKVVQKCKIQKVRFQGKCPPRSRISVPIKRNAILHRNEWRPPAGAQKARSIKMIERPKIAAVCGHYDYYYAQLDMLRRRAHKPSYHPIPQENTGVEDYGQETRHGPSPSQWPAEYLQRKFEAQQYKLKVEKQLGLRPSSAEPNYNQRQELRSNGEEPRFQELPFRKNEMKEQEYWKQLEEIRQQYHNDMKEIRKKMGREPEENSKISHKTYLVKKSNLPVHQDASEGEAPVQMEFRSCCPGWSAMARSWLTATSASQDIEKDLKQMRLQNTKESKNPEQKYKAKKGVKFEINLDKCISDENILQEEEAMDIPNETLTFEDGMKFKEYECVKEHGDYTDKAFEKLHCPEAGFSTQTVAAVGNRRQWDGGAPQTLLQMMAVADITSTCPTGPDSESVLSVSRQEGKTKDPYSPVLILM
Sequence of UniProt P42336 (whole entry, unmodified, looked up): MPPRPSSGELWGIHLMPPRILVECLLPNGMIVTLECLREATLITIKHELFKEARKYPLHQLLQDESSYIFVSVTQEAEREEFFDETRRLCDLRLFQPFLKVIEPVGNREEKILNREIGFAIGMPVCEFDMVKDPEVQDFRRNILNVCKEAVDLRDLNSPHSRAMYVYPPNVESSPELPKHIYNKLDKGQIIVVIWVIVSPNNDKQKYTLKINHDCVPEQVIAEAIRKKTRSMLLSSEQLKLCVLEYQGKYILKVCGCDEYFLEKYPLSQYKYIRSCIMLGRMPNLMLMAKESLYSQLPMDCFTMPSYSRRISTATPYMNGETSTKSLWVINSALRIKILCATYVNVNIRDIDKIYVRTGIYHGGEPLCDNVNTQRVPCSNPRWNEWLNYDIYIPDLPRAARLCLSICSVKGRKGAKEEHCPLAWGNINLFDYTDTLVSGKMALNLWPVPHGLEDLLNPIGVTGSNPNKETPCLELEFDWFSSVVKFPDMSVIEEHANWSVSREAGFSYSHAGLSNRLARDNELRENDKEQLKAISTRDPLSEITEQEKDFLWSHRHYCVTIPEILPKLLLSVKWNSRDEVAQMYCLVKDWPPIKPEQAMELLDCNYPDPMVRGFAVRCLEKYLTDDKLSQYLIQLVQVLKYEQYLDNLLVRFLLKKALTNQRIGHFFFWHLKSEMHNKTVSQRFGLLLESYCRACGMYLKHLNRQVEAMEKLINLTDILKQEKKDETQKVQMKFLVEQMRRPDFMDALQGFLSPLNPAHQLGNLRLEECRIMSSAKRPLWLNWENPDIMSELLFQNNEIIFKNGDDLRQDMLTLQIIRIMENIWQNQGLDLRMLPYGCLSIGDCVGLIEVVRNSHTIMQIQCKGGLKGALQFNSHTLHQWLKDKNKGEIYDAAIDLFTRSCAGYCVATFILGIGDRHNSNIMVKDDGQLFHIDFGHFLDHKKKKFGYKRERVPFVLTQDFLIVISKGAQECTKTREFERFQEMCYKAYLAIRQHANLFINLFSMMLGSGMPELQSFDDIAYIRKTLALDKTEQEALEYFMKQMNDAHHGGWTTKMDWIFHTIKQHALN

The solubility of `CC[C@H](C)[C@@H]([C@@H](CC(=O)N1CCC[C@H]1[C@H](OC)[C@@H](C)C(=O)N[C@H](C)[C@@H](O)c1ccccc1)OC)N(C)C(=O)[C@@H](NC(=O)[C@H](C(C)C)N(C)C(=O)OCc1ccc(NC(=O)[C@H](CCCNC(N)=O)NC(=O)[C@@H](NC(=O)CCCCCN2C(=O)CC(SCCC(=O)N[C@@H](Cc3cn(CCOCCNCCCCCCOc4cc(OCCCc5c(C)n[nH]c5C)cc(C(=O)O)c4)nn3)C(=O)NCCCCCC(=O)NCCCC[C@H](NC(=O)N[C@@H](CCC(=O)O)C(=O)O)C(=O)O)C2=O)C(C)C)cc1)C(C)C` (some centres unmarked) is reported as at least 200 µM (PBS; pH 7.4).
For `OC(Cn1cncn1)(Cn1cncn1)c1ccc(F)cc1F`, the MIC was 16 µg/mL (≈ 52.2 µM) (Pichia kudriavzevii; microbial growth, broth dilution; ATCC34135).
The IC50 of `C[C@@H](O)[C@@H]1NC(=O)[C@H](Cc2ccccc2)NC(=O)[C@@H](Cc2ccccc2)NC(=O)[C@H]([C@@H](C)O)NC(=O)[C@@H](CCCCN)NC(=O)[C@H](CC(=O)O)NC1=O` is reported as over 16 µg/mL (Balamuthia mandrillaris; parasite growth, ATP luminescence).
The MIC of `COC(=O)c1cc(-c2cccc(NC(=O)Nc3ccc(C)c(Cl)c3)c2)on1` is reported as over 64 µg/mL (Acinetobacter baumannii; microbial growth, broth dilution; BAA1605).
With `Cc1ccc(NNC(=O)c2nnc(CC34CC5CC(CC(C5)C3)C4)o2)cc1` the inhibition was 41.7% (Pyricularia grisea; microbial growth; 50 µg/mL).
`CC(C)[C@H]1NC(=O)[C@H](Cc2ccccc2)NC(=O)CNC(=O)[C@@H](Cc2ccccc2)NC(=O)[C@H](CCCCN)NC(=O)[C@@H](CCCNC(=N)N)NC1=O` has an IC90 of over 16 µg/mL (Balamuthia mandrillaris; parasite growth, ATP luminescence).
`COc1ncccc1-c1cnn2ccc(N3CCN(C(=O)OC(C)C)CC3)nc12` gave a remaining binding of 83% (CAMK2G (Homo sapiens, UniProt Q13555); binding, competition with immobilised ligand; 1 µM).
`COc1ccc2[nH]c(=S)n(Cc3cccnc3)c(=O)c2c1` gave an IC50 of 1200 nM (4'-phosphopantetheinyl transferase PptT; enzyme activity, inhibitor, FP).
`COc1ccc(Nc2nn3c(-c4ccccc4)ccnc3c2C(=O)Nc2ccc(Cl)cc2)cc1` has a viability of 38.3% (A549; cell growth or viability, MTT; 50 µg/mL, 48 h, serum-free).
`CC(C)[C@@H]1NC(=O)[C@@H](Cc2ccccc2)NC(=O)[C@H](Cc2ccccc2)NC(=O)[C@@H]([C@H](C)O)NC(=O)[C@H]([C@@H](C)O)NC(=O)[C@@H](CCCNC(=N)N)NC1=O` gave an IC90 of over 16 µg/mL (Balamuthia mandrillaris; parasite growth, ATP luminescence).
With `O=C(NNc1cc(F)ccc1F)c1nnc(C23CC4CC(CC(C4)C2)C3)o1` the inhibition was 71.6% (Pyricularia grisea; microbial growth; 50 µg/mL).
With `Nc1ncc(-c2nc(N3CCOCC3)nc(N3CCOCC3)n2)c(C(F)F)n1` the remaining binding was 92% (NEK5 (Homo sapiens, UniProt Q6P3R8); binding, competition with immobilised ligand; 10 µM).
The viability of `Cc1sc2c(c1C)C(c1ccc(Cl)cc1)=N[C@@H](CC(=O)OC(C)(C)C)c1nnc(C)n1-2` is reported as 21.3% (OCI-Ly1; cell growth or viability, ATP luminescence; 1 µM, 5 days).
`CO/C=C(/C(=O)OC)c1ccccc1Oc1cc(Oc2ccccc2C#N)ncn1` gave an inhibition of 46.4% (Pyricularia grisea; microbial growth; 50 µg/mL).
For `CC(C)[C@@H]1NC(=O)[C@@H](Cc2ccccc2)NC(=O)[C@H](Cc2ccccc2)NC(=O)[C@@H]([C@H](C)O)NC(=O)[C@@H](CCCNC(=N)N)NC1=O`, the IC50 was over 16 µg/mL (Balamuthia mandrillaris; parasite growth, ATP luminescence).
The IC50 of `O=c1cc(CSc2ccc(N=Cc3ccc(Br)cc3)cc2)occ1O` is reported as 930 nM (ABTS scavenging, absorbance).
For `COC(=O)c1cc(-c2cccc(NC(=S)Nc3cc(C(F)(F)F)cc(C(F)(F)F)c3)c2)on1`, the MIC was over 64 µg/mL (Acinetobacter baumannii; microbial growth, broth dilution; BAA1605).
`COc1ccc(Nc2nn3c(-c4ccccc4)ccnc3c2C(=O)Nc2ccccc2)cc1` has a viability of 98.7% (A549; cell growth or viability, MTT; 6.25 µg/mL, 48 h, serum-free).
The IC50 of `O=C1C(NCCc2c[nH]c3ccccc23)=CC2=NCCc3c[nH]c1c32` is reported as 764 nM (Babesia duncani; parasite growth, SYBR Green; 60 h, blood stage).
For `O=C(NNc1ccccc1)c1nnc(CC23CC4CC(CC(C4)C2)C3)o1`, the inhibition was 44.3% (Pyricularia grisea; microbial growth; 50 µg/mL).
For `CCOC(=O)C1=C(N)N(c2ccc(C(=O)OCC)cc2)C(O)=C(C#N)C12C(=O)Nc1ccccc12` (centres unmarked), the viability was 88.2% (HepG2; cell growth or viability, MTT; 1.56 µM, 24 h).
With `O=C1C=C2NCCc3c[nH]c(c32)C1=O` the IC50 was 71200 nM (Babesia duncani; parasite growth, SYBR Green; 60 h, blood stage).
`N.N.[Cl][Pt][Cl]` gave an IC50 of 760 nM (SU-DHL-5; cell growth or viability, ATP luminescence; 72 h).
`CC(C)[C@@H]1NC(=O)[C@@H](CCCCN)NC(=O)[C@H]([C@@H](C)O)NC(=O)[C@@H](CCCCN)NC(=O)[C@H](Cc2c[nH]c3ccccc23)NC(=O)[C@@H](C)NC(=O)[C@@H](C(C)C)NC(=O)[C@@H](C)NC(=O)[C@H](Cc2c[nH]c3ccccc23)NC(=O)[C@@H](Cc2c[nH]c3ccccc23)NC1=O` has an IC90 of 13.7 µg/mL (≈ 10.9 µM) (Balamuthia mandrillaris; parasite growth, ATP luminescence).
`[2H]c1c([2H])c([C@]2([2H])CCCN2C(=O)C(C)(C)Oc2ccc3cn[nH]c3c2)c([2H])c([2H])c1C([2H])([2H])[2H]` has a remaining binding of 86% (EIF2AK1 (Homo sapiens, UniProt Q9BQI3); binding, competition with immobilised ligand; 1 µM).
With `CC(C)(C)c1ccc(C=Nc2ccc(SCc3cc(=O)c(O)co3)cc2)cc1` the IC50 was 9650 nM (ABTS scavenging, absorbance).
For `O=C(O)c1cc2[nH]c(=S)n(Cc3cccnc3)c(=O)c2cc1Cl`, the IC50 was over 100000 nM (4'-phosphopantetheinyl transferase PptT; enzyme activity, inhibitor, FP).
The IC90 of `CC(C)[C@H]1NC(=O)[C@H](Cc2ccccc2)NC(=O)CNC(=O)[C@@H](Cc2ccccc2)NC(=O)[C@H](CCC(N)=O)NC(=O)[C@@H](CCCN)NC1=O` is reported as over 16 µg/mL (Balamuthia mandrillaris; parasite growth, ATP luminescence).
For `O=C1C(NCCc2ccc(O)cc2)=CC2=NCCc3c[nH]c1c32`, the IC50 was 192 nM (Babesia duncani; parasite growth, SYBR Green; 60 h, blood stage).
`Cc1cccc(C=Nc2ccc(SCc3cc(=O)c(O)co3)cc2)c1` gave an IC50 of 22900 nM (ABTS scavenging, absorbance).
For `CC(C)[C@@H]1NC(=O)[C@@H](C(C)C)NC(=O)[C@H](C)NC(=O)[C@H](CO)NC(=O)[C@H](Cc2c[nH]c3ccccc23)NC(=O)[C@@H](Cc2ccc(O)cc2)NC(=O)[C@H](CCCN)NC(=O)[C@H](Cc2c[nH]c3ccccc23)NC1=O`, the IC50 was over 16 µg/mL (Balamuthia mandrillaris; parasite growth, ATP luminescence).
`O=c1cc(CSc2ccc(N=Cc3ccccc3Cl)cc2)occ1O` has an IC50 of 20 nM (ABTS scavenging, absorbance).
For `O=C(NNc1ccc(Cl)cc1)c1nnc(C23CC4CC(CC(C4)C2)C3)o1`, the inhibition was 100% (Pyricularia grisea; microbial growth; 50 µg/mL).
The IC50 of `O=c1cc(CSc2ccc(N=Cc3cccc(F)c3)cc2)occ1O` is reported as 220 nM (ABTS scavenging, absorbance).
With `Cn1cc2c3c1C(=O)C(NCCc1ccc(O)cc1)=CC3=NCC2` the IC50 was 1600 nM (Babesia duncani; parasite growth, SYBR Green; 60 h, blood stage).
`Cc1nn(C)cc1-c1nc2c(N3CCN(Cc4ccc(Cl)cc4)CC3)c(Cl)cnc2[nH]1` gave a remaining binding of 100% (PIK3CA (Homo sapiens, UniProt P42336, H1047Y); binding, competition with immobilised ligand; 1 µM).
`C[C@@H]1[C@H](O)[C@@H](C)/C=C/C=C/C=C/C=C/C=C/C=C/C=C/[C@H](O[C@@H]2O[C@H](C)[C@@H](O)[C@H](N)[C@@H]2O)C[C@@H]2O[C@](O)(C[C@@H](O)C[C@@H](O)[C@H](O)CC[C@@H](O)C[C@@H](O)CC(=O)O[C@H]1C)C[C@H](O)[C@H]2C(=O)O` has an MIC of 0.5 µg/mL (≈ 0.541 µM) (Nakaseomyces glabratus; microbial growth, broth dilution; MY1381).
For `O=C(NNc1ccc(F)c(F)c1)c1nnc(CC23CC4CC(CC(C4)C2)C3)o1`, the EC50 was over 50 µg/mL (Pyricularia grisea; microbial growth).
For `NCCCC[C@H]1NC(=O)[C@H](CO)NC(=O)[C@H](Cc2ccccc2)NC(=O)[C@@H](Cc2ccccc2)NC(=O)[C@H](Cc2c[nH]c3ccccc23)NC(=O)[C@@H](CCCN)NC(=O)[C@H](CCCN)NC1=O`, the IC50 was over 16 µg/mL (Balamuthia mandrillaris; parasite growth, ATP luminescence).
`Cc1ccc(C=Nc2ccc(SCc3cc(=O)c(O)co3)cc2)cc1` gave an IC50 of 16000 nM (ABTS scavenging, absorbance).
For `O=C(NNc1ccc(Cl)c(Cl)c1)c1nnc(CC23CC4CC(CC(C4)C2)C3)o1`, the EC50 was over 12.5 µg/mL (Pyricularia grisea; microbial growth).

Some of these lines once more:
`CC(C)[C@@H]1NC(=O)[C@@H](CCCCN)NC(=O)[C@H]([C@@H](C)O)NC(=O)[C@@H](CCCCN)NC(=O)[C@H](Cc2c[nH]c3ccccc23)NC(=O)[C@@H](C)NC(=O)[C@@H](C(C)C)NC(=O)[C@@H](C)NC(=O)[C@H](Cc2c[nH]c3ccccc23)NC(=O)[C@@H](Cc2c[nH]c3ccccc23)NC1=O` has an IC90 of 13.7 µg/mL (≈ 10.9 µM) (Balamuthia mandrillaris; parasite growth, ATP luminescence).
`[2H]c1c([2H])c([C@]2([2H])CCCN2C(=O)C(C)(C)Oc2ccc3cn[nH]c3c2)c([2H])c([2H])c1C([2H])([2H])[2H]` has a remaining binding of 86% (EIF2AK1 (Homo sapiens, UniProt Q9BQI3); binding, competition with immobilised ligand; 1 µM).
With `CC(C)(C)c1ccc(C=Nc2ccc(SCc3cc(=O)c(O)co3)cc2)cc1` the IC50 was 9650 nM (ABTS scavenging, absorbance).
For `O=C(O)c1cc2[nH]c(=S)n(Cc3cccnc3)c(=O)c2cc1Cl`, the IC50 was over 100000 nM (4'-phosphopantetheinyl transferase PptT; enzyme activity, inhibitor, FP).
The IC90 of `CC(C)[C@H]1NC(=O)[C@H](Cc2ccccc2)NC(=O)CNC(=O)[C@@H](Cc2ccccc2)NC(=O)[C@H](CCC(N)=O)NC(=O)[C@@H](CCCN)NC1=O` is reported as over 16 µg/mL (Balamuthia mandrillaris; parasite growth, ATP luminescence).
For `O=C1C(NCCc2ccc(O)cc2)=CC2=NCCc3c[nH]c1c32`, the IC50 was 192 nM (Babesia duncani; parasite growth, SYBR Green; 60 h, blood stage).
